Published values of several laboratories.
Protocols differ between the studies behind these lines. ± marks the error that the study gave.

| Compound | cell line | test | system | conditions | EC50 |
| --- | --- | --- | --- | --- | --- |
| CC(=O)Nc1ccc(Sc2ncccc2C(=O)Nc2ccc(F)cc2)cn1 | HEK293 parental | IP-One |  | counter-screen, with: ATP | 6000 nM |
| CC(C)Cn1c(=O)n(C)c(=O)c2c1nc(Cc1cccc3ccccc13)c(=O)n2CCCO | Raji | cell growth or viability, MTT |  | 96 h | 1550 nM |
| CN(Cc1ccc(/C=C/C(=O)NO)cc1)CC12CC3CC(CC(C3)C1)C2 | PNC | histone H3K9 acetylation, refers to: H3K9ac |  |  | 100 nM |
| C(=C/c1ccccc1)/c1ccccc1 | U-937 | apoptosis, flow cytometry, refers to: caspase-3 activity |  | 24 h, 50% apoptosis induction | 8000 nM |
| O=C1NCCN1C[C@H](O)Cn1c2ccc(F)cc2c2cc(F)ccc21 | glioblastoma stem cells | viability |  |  | ≥ 10000 nM |
| C=CC(=O)Nc1cc(-c2nn(C3CCN(CCNC(=O)[C@H](C)CCC45CC6CC(CC(C6)C4)C5)CC3)c3ncnc(N)c23)ccc1Oc1ccccc1 | HCC827 GR6 | cell proliferation |  | 3 days | 1400 nM |
| Cc1ccc2c(n1)c1nc(C)ccc1c1nc3cc4ccccc4cc3nc21.[Ru+2].c1ccc(-c2cccc(-c3ccccn3)n2)nc1.c1ccncc1 | MCF-10A | cell viability, MTT |  | 1 h, blue light 56 J/cm2 | 7000 ± 2100 nM |
| FC(F)(F)c1ccnc(-c2cc(C(F)(F)F)ccn2)c1.FC(F)(F)c1ccnc(-c2cc(C(F)(F)F)ccn2)c1.[Cl-].[Cl-].[Ru+2].c1csc(-c2ccc(-c3ccc(-c4ccc(-c5nc6c7cccnc7c7ncccc7c6[nH]5)s4)s3)s2)c1 | SK-MEL-28 | cell viability |  | normoxia, with: red light 633 nm, 100 J/cm2 | 2740 nM |
| CCCCCCCCCCCCCCCC(=O)N[C@@H](CCC(=O)NCCCC[C@H](NC(=O)[C@H](CC(=O)O)NC(=O)[C@H](CO)NC(=O)[C@@H](NC(=O)[C@H](Cc1ccccc1)NC(=O)[C@@H](NC(=O)CNC(=O)[C@H](CCC(N)=O)NC(=O)[C@H](CO)NC(=O)[C@@H](N)Cc1c[nH]cn1)[C@@H](C)O)[C@@H](C)O)C(=O)N[C@@H](CO)C(=O)N[C@@H](CCC(=O)O)C(=O)N[C@@H](Cc1ccc(O)cc1)C(=O)N[C@@H](CC(C)C)C(=O)N[C@@H](CC(=O)O)C(=O)N[C@@H](CO)C(=O)N[C@@H](CCC(=O)O)C(=O)N[C@@H](CCCNC(=N)N)C(=O)N[C@@H](C)C(=O)N[C@@H](CCCNC(=N)N)C(=O)N[C@@H](CC(=O)O)C(=O)N[C@@H](Cc1ccccc1)C(=O)N[C@H](C(=O)N[C@@H](C)C(=O)N[C@@H](Cc1c[nH]c2ccccc12)C(=O)N[C@@H](CC(C)C)C(=O)N[C@@H](CCC(=O)O)C(=O)N[C@@H](C)C(=O)NCC(=O)NCC(=O)O)C(C)C)C(=O)O | primary rat hepatocytes | hepatic glucose output |  | 120 min, 37 °C, with: 0.1% BSA | 0.083 ± 0.028 nM |
| CC(C)(C)OC(=O)C(NCc1ccc(CCC(=O)NO)nc1)C1CCCCC1 (stereo not shown) | monocytes | global acetylation, flow cytometry | human whole blood | 4 h | 6310 nM |
| C/C(=N\NC(=O)c1cccc(S(=O)(=O)N2CCOCC2)c1)c1cc(Cl)ccc1O | NCI-H510A | cell growth or viability, resazurin |  | 10 days | 56.2 nM |
| [Ru+2].c1ccc(-c2ccc3c(n2)c2ncccc2c2nc4cc5ccccc5cc4nc32)nc1.c1ccc(-c2ccc3c(n2)c2ncccc2c2nc4cc5ccccc5cc4nc32)nc1 | MCF-10A | cell growth or viability, MTT |  | dark | > 25000 nM |
| CC(=O)N[C@@H](CC[S+](C)[Ru-4]123([S+](C)CC[C@H](NC(C)=O)C(=O)O)[n+]4ccc5ccccc5c4Nc4cccc([n+]41)-c1cccc([n+]12)Nc1c2ccccc2cc[n+]13)C(=O)[O-].F[P-](F)(F)(F)(F)F (stereo partly shown) | A-431 and A549 | phototoxicity |  | green light | < 1000 nM |

For quick reference, copied from above:
| Compound | cell line | test | system | conditions | EC50 |
| --- | --- | --- | --- | --- | --- |
| C(=C/c1ccccc1)/c1ccccc1 | U-937 | apoptosis, flow cytometry, refers to: caspase-3 activity |  | 24 h, 50% apoptosis induction | 8000 nM |
